{"data": "Measured values gathered from unrelated publications", "note": "Every numbered part comes from another study and shows a few of its results, in no order."}
{"data": "Block 1", "target": "Prothrombin, mature alpha-thrombin (F2, Homo sapiens, UniProt P00734)", "method": "aptamer microarray, sandwich", "form": "DNA with 2'F-ANA", "matrix": "in vitro", "tested at": "200 nM", "setting": "whole 15-mer aptamer, many near background", "together with": "Cy3 exosite-II aptamer, 400 nM", "direction": "higher = stronger binding", "strand": "GGTTGGTGTGGTTGG"}
{"Modification": "2'F-ANA at 2 3 6 10 13 14", "mean fluorescence intensity [a.u.]": 263}
{"Modification": "2'F-ANA at 1 2 8 10 12 13", "mean fluorescence intensity [a.u.]": 62.2}
{"Modification": "2'F-ANA at 1 2 5 6 7 13 15", "mean fluorescence intensity [a.u.]": 52.1}
{"Modification": "2'F-ANA at 1 3 6 7 11 14 15", "mean fluorescence intensity [a.u.]": 105}
{"Modification": "2'F-ANA at 1 2 5 7 9 10 11 15", "mean fluorescence intensity [a.u.]": 76.7}
{"Modification": "2'F-ANA at 4 6 7 10 11 12 13 14", "mean fluorescence intensity [a.u.]": 66.2}
{"Modification": "2'F-ANA at 2 3 6 8 10 11 12 13", "mean fluorescence intensity [a.u.]": 353}
{"Modification": "2'F-ANA at 2 3 4 5 7 9 11 15", "mean fluorescence intensity [a.u.]": 70.3}
{"Modification": "2'F-ANA at 2 3 4 9 11 14", "mean fluorescence intensity [a.u.]": 270}
{"Modification": "2'F-ANA at 1 2 3 8 9 12 14", "mean fluorescence intensity [a.u.]": 96.2}
{"Modification": "2'F-ANA at 3 4 5 8 10 11 12 14 15", "mean fluorescence intensity [a.u.]": 79.1}
{"Modification": "2'F-ANA at 3 5 7 8 11 12 14", "mean fluorescence intensity [a.u.]": 68.1}
{"Modification": "2'F-ANA at 1 4 5 6 7 9 10 11 13 14 15", "mean fluorescence intensity [a.u.]": 71.1}
{"Modification": "2'F-ANA at 1 7 9 11 12 14 15", "mean fluorescence intensity [a.u.]": 88.6}
{"Modification": "2'F-ANA at 1 2 5 9 14 15", "mean fluorescence intensity [a.u.]": 50.1}
{"Modification": "2'F-ANA at 1 7 9 10 11 14", "mean fluorescence intensity [a.u.]": 52.5}
{"Modification": "2'F-ANA at 1 2 3 12", "mean fluorescence intensity [a.u.]": 436}
{"Modification": "2'F-ANA at 1 3 4 5 9 10 13 15", "mean fluorescence intensity [a.u.]": 86.3}
{"Modification": "2'F-ANA at 2 5 6 7 8 10", "mean fluorescence intensity [a.u.]": 47.5}
{"Modification": "2'F-ANA at 2 8 10 12 13 14", "mean fluorescence intensity [a.u.]": 101}
{"Modification": "2'F-ANA at 2 3 5 9 10 11 13", "mean fluorescence intensity [a.u.]": 54.1}
{"Modification": "2'F-ANA at 1 2 3 4 13 15", "mean fluorescence intensity [a.u.]": 141}
{"Modification": "2'F-ANA at 2 3 5 6 7 9 11 12 14 15", "mean fluorescence intensity [a.u.]": 53}
{"data": "Block 2", "target": "Histone acetyltransferase KAT6A, winged helix 2, GST fusion (KAT6A, Homo sapiens, UniProt Q92794, residues 85-181)", "method": "protein binding microarray", "form": "double-stranded DNA, one strand shown", "matrix": "in vitro", "tested at": "not given", "setting": "8-mer, flanks averaged, mean of 2 arrays, mostly near background", "relative to": "not given", "direction": "higher = stronger binding", "Target sequence (chain)": "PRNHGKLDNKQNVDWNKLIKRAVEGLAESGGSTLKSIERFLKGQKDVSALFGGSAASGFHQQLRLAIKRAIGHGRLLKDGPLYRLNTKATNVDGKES"}
{"Strand": "AGGTGGAA", "E-score": 0.0349}
{"Strand": "AGACAATG", "E-score": -0.135}
{"Strand": "AAATGAGA", "E-score": -0.08}
{"Strand": "CCGCGAGA", "E-score": -0.0608}
{"Strand": "ATATACCC", "E-score": -0.0751}
{"Strand": "GACAACCC", "E-score": -0.1}
{"Strand": "GACTGTAC", "E-score": -0.252}
{"Strand": "GACAACAC", "E-score": -0.0225}
{"Strand": "AAAATGTC", "E-score": 0.0379}
{"Strand": "CAAGTGAA", "E-score": 0.0131}
{"Strand": "AGGTAAAG", "E-score": -0.0995}
{"Strand": "ACTCGCTC", "E-score": 0.192}
{"Strand": "AAACGCCG", "E-score": 0.136}
{"Strand": "GATGGCAA", "E-score": 0.00447}
{"Strand": "ACATGCGT", "E-score": -0.12}
{"Strand": "ACTGCTCG", "E-score": 0.00535}
{"Strand": "CATAACGG", "E-score": -0.0914}
{"data": "Block 3", "target": "Centromere-binding protein 1, full length, N-terminal tag (CBF1, Saccharomyces cerevisiae, UniProt P17106, residues 1-351)", "method": "protein-binding microarray", "form": "double-stranded DNA, one strand shown", "matrix": "in vitro", "tested at": "0.8 µM", "setting": "whole 60-bp probe, no competitor", "direction": "higher = stronger binding", "all sequences stand within": "… GTCTTGATTCGCTTGACGCTGCTG", "chain of UniProt P17106 (whole entry, looked up)": "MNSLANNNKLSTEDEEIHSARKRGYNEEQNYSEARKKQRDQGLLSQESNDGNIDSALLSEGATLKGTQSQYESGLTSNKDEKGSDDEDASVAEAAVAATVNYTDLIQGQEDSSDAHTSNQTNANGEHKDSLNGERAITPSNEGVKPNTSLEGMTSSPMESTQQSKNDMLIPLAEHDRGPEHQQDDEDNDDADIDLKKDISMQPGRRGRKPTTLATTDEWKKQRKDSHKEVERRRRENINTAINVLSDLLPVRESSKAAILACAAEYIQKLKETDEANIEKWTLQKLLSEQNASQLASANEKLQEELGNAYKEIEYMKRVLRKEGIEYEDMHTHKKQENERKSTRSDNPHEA"}
{"Strand": "TGTACGAAGCTATTTAACATGACTATAGTAGTTAGG", "fluorescence intensity": "523 a.u."}
{"Strand": "GAATGCGATTCTTTTCGCATGCACTCAATTGGATAG", "fluorescence intensity": "506 a.u."}
{"Strand": "GAATGACGAATCAACGTGATAATTGTGTAACCGTAG", "fluorescence intensity": "1010 a.u."}
{"Strand": "CTAACCATAGGTAAGCACGTGATTATGGAAGGATTC", "fluorescence intensity": "18400 a.u."}
{"Strand": "CTAGGCCCGCCGTCCAACGTGCGGGTACCGTACTTC", "fluorescence intensity": "464 a.u."}
{"Strand": "GAAGACTTCTCGGAACACATGCTAAAGCTCCAGTAG", "fluorescence intensity": "667 a.u."}
{"Strand": "CTATTCCATATTTACCATGTGGACCCTTTCAAATTC", "fluorescence intensity": "652 a.u."}
{"Strand": "TGTACGAAGCTATTACATGTGATTATAGTAGTTAGG", "fluorescence intensity": "1460 a.u."}
{"Strand": "CTAATTGTTACAGCACAAATCACGCGTATTTTCTTC", "fluorescence intensity": "1120 a.u."}
{"Strand": "CTATAATCCATACGTGGTCGTGCTTTACTGAATTTC", "fluorescence intensity": "543 a.u."}
{"Strand": "GAACACGTTACTAATTACGTGAAGTTTGTGATCTAG", "fluorescence intensity": "766 a.u."}
{"Strand": "TGTACGAAGCTATATGACGTATTTATAGTAGTTAGG", "fluorescence intensity": "491 a.u."}
{"Strand": "CTATTAACTAGTTCTTGCCTGATGCCGTAATTTTTC", "fluorescence intensity": "482 a.u."}
{"Strand": "GAAGTTCCTTGCTATCACGTTTGTGCAAGGTATTAG", "fluorescence intensity": "927 a.u."}
{"Strand": "CTAAGAGTTGTACATCAGGTAAGAATGTTATTATTC", "fluorescence intensity": "503 a.u."}
{"Strand": "CCTAACTACTATACACACGTAGGATAGCTTCGTACA", "fluorescence intensity": "540 a.u."}
{"Strand": "TGTACGAAGCTATAGCACGTGATTATAGTAGTTAGG", "fluorescence intensity": "14600 a.u."}
{"Strand": "CTATCCAGCATGAATCAGCAGAACAACTTTTATTTC", "fluorescence intensity": "527 a.u."}
{"Strand": "GAAAACTGAGTTCCAAACGTGACAAGGTAAGTTTAG", "fluorescence intensity": "886 a.u."}
{"data": "Block 4", "target": "Protein C-ets-1 (ETS1, Homo sapiens, UniProt P14921, residues 1-441, Y397A, full length assumed)", "method": "protein-binding microarray", "form": "double-stranded DNA, one strand shown", "matrix": "in vitro", "tested at": "not given", "setting": "k-mer, scored over probes, only values ≥0.25", "direction": "higher = stronger binding", "Residues (chain)": "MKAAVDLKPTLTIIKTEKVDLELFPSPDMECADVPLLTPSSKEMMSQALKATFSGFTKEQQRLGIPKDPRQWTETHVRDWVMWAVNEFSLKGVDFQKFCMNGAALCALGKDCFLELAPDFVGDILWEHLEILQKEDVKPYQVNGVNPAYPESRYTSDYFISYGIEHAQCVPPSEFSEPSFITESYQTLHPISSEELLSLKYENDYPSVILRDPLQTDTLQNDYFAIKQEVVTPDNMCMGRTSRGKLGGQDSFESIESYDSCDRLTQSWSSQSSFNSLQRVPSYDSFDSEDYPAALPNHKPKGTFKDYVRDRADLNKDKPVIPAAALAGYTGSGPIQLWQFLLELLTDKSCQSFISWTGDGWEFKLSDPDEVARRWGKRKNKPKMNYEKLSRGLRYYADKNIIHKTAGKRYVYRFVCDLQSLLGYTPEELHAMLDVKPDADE"}
{"Strand": "ACTTCCAC", "E-score": 0.285}
{"Strand": "AATGTGAC", "E-score": 0.253}
{"Strand": "CGGATACA", "E-score": 0.294}
{"Strand": "GTTGTATA", "E-score": 0.281}
{"Strand": "AGTGTTTG", "E-score": 0.3}
{"Strand": "ATTGCAAT", "E-score": 0.333}
{"Strand": "CTTTTGCC", "E-score": 0.32}
{"Strand": "GCCGCGGC", "E-score": 0.333}
{"Strand": "ATTGGCAA", "E-score": 0.4}
{"Strand": "TGACATAA", "E-score": 0.331}
{"Strand": "ATGATACA", "E-score": 0.25}
{"Strand": "GTAACACA", "E-score": 0.275}
{"Strand": "ATGTCAAA", "E-score": 0.301}
{"Strand": "TATGGCAA", "E-score": 0.26}
{"Strand": "ACGGATTG", "E-score": 0.252}
{"Strand": "CCGGATGC", "E-score": 0.412}
{"Strand": "AATTGCCA", "E-score": 0.353}
{"Strand": "GCCAAACA", "E-score": 0.31}
{"data": "Block 5", "target": "RNA binding protein fox-1 homolog 2, RRM domain, GST-SBP tag (RBFOX2, Homo sapiens, UniProt O43251-10, residues 100-194)", "method": "RNA Bind-n-Seq", "form": "RNA", "matrix": "in vitro", "tested at": "365 nM", "setting": "natural RNA segment, single round, ends assumed", "relative to": "no-protein control", "direction": "higher = stronger binding", "all sequences stand within": "GGGAGUUCUACAGUCCGACGAUC … UGGAAUUCUCGGGUGCCAA", "Construct (chain)": "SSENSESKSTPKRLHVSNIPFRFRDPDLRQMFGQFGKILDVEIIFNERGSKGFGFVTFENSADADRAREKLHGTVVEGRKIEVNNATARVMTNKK"}
{"Strand": "CCUUCUCCCUGGGUGUGCUUAAGGGGGCUCCUUGGGCCCGCCUCCCCAGGAGGUAGAAAAUGAGUGGCAGGCUAGAGAUUUCACCCAUUUUGUGGGCUGGAGUUACCAGU", "RBNS enrichment (R)": 0.296}
{"Strand": "AGAUGUGUAUGGCAAUGUUAACUGAACCUGUUUGUAUUAAAAAGUAAAUCCCUAUGAGGAAUGUGGAAAUGUCCGUCAAAGCAUUGUCUUUUAAGUAAGUUCCAAGAUCC", "RBNS enrichment (R)": 1.4}
{"Strand": "GACACUGGCUCAUAUUCCUGCAGCCUGGAGGCCGGGUGCUCAGGGCUGACACGUCCACCCCAGUGCACCCACUCUGCUUUGACUGAGCAGACUGGUGAGCAGACUGGUGG", "RBNS enrichment (R)": 0.369}
{"Strand": "UCUUCUGGUUGGUAAAAGAUAUGUUCCGGAGAAUAUAGGAACAUGCCCGGAGAGACCUAACCUGUAUGUCCACUUUCAUGCUCUUGUUCCCCAAACCCCUGGGCAUUGUU", "RBNS enrichment (R)": 0.956}
{"Strand": "AAAAUAUUUUUAAAAGAUCUUCAAAAGUAAUGCCUCUGUCUAGCAUGCCAACAAGAAUGCAUUGAUAUUGUGAACAUUUGUGAUAUAUGUAUUAAUAAAUAGAGCAAUUA", "RBNS enrichment (R)": 12.9}
{"Strand": "GUGAUGAACAUAUUCAUGACGCGUGGAAGUCAGUACGAUCAAGUUGUUGACUGUGAUUAGAUCACACCUUAAUUCAUUUCUAGACUCAAAACCUGGAGACGCAGCUACUG", "RBNS enrichment (R)": 0.22}
{"Strand": "CUUAGUUGAUUCAGUAGUUGUUACCAAGAAACAUAUGUUAUAGGAAAACAACUUGGUAUUUAAGUAUGAAGUGGAUGAAAUGUUUAUUUAUUUAAGGUGAAAGCAUUUGA", "RBNS enrichment (R)": 0.398}
{"Strand": "CAUGUCUAGCCCAUCAUCCUGCUUGGAGCAAGUAGGCAGGAGCUCAAUAAAUGUUUGUUGCAUGAAGAAUGUCUGGAGAGCUGGAUGGGGCAUCAUGAAGAGGGUAGGGG", "RBNS enrichment (R)": 28.2}
